Results pooled from the literature.
Numbered parts are unrelated; each lists some results of a single study. Changes are numbered by the printed parent chain.

Series 1 — method: RNA Bind-n-Seq; form: RNA; matrix: in vitro; concentration: 365 nM; baseline: no-protein control; direction: higher = stronger binding; quantity: RBNS enrichment (R)
Target: RNA binding protein fox-1 homolog 2, RRM domain, GST-SBP tag (RBFOX2, Homo sapiens, UniProt O43251-10, residues 100-194)
Setting: natural RNA segment, single round, ends assumed
All sequences stand within: GGGAGUUCUACAGUCCGACGAUC … UGGAAUUCUCGGGUGCCAA
Construct (chain): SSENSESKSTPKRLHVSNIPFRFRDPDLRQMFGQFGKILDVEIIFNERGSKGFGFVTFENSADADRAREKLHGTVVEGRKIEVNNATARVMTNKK
GUUUCCUAACUGCAUGUGAUAGACUUGGACAUUUGGAGAAUAUUUUGUACAUGAAUGAUUCAAAAUCCAACCCACCAAAUGGUUACCCUGUAUUCCAGAAACUCACUUGA: 49.7
CCAGGUCCCAGUCCCGGGUUGCAGGUGUUGACUGCCACCAAGGUUUGAUACGGGAUCCAAAUUCAGGCCCCCAUCUCGUCCAUCGAGCACUUUGUGAACUUGAACCCACG: 0.327
AUCCCAACACUUUGGGAGGCUGAGGAGGAAGGAUAGCUUGAGGCCAGGAGUUUGAGACUAGACUGGGCAACAUAGCAAGACCCCGUCUCUACAAAGCACAACGAAAAACA: 0.453
CCUGGCCCCUGGCCCCUGGCCCCUUGCCUGGCUGGCUUGACAGCCUGAGCACAAGAAGCAGUAAGUUGGCACCUUGCCACACUGUUGGUUGGGCCCAGGUGCUGCUCAGC: 0.277
GGACUACAGGGGUGCACUACCACACCGGGUUGAAUUUUUUUUUAAUUUUAGUAGAGAUGAAGUGUCACUAUGUUACCAAGGCUGGUCUCAAACUCCUAAACUCAGAUGAU: 0.249
UGGGAAGUUCUUUUAAAUCAUACUAUUAAGACGACCAUCUCUUCUGUUAAAUUGCAGUACGUGUUAUAGACCACUCAGAUCAAGCCUCUACUCCCUCUGAGAGUUUUCAA: 0.381
UACCCCAAGCUACAGUGGGGGCCCAUGGCCCCAGCUUGCUAGGUCACCCUCCACCCCUCCUCCAGCGCCUGCUCUCUGCAACCUGACUUCCACCUCUAUCUCUCUUUCUC: 1.66
CUGAGCCGCUGACUCUUCUGGCAAAAAUUCUGUUGGGAUUUAAGGCCAAGGGUCAGUGGGUGGCAGGGGGCUGACAAUGAGCUUGUGUGUUGUUGGUCUGCUUGGUGUGU: 1.31

Series 2 — method: protein binding microarray; form: double-stranded DNA, one strand shown; matrix: in vitro; concentration: not given; baseline: not given; direction: higher = stronger binding; quantity: E-score
Target: Histone acetyltransferase KAT6A, winged helix 1, GST fusion (KAT6A, Homo sapiens, UniProt Q92794, residues 1-85)
Setting: 8-mer, flanks averaged, mean of 2 arrays, mostly near background
Construct (chain): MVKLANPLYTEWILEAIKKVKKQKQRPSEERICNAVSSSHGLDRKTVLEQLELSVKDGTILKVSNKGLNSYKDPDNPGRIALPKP
ACGAGGTC: -0.0163
CCGATAGA: 0.0295
ACCTAACC: 0.0263
ATCCTGTA: -0.321
TACAACTA: -0.124
AGATGAAA: -0.193
GCAGCACA: -0.117
CTCGCAGA: -0.152

Further values, each from its own experiment
P1: PafA, mature enzyme, eGFP fusion (Elizabethkingia meningoseptica, UniProt Q9KJX5); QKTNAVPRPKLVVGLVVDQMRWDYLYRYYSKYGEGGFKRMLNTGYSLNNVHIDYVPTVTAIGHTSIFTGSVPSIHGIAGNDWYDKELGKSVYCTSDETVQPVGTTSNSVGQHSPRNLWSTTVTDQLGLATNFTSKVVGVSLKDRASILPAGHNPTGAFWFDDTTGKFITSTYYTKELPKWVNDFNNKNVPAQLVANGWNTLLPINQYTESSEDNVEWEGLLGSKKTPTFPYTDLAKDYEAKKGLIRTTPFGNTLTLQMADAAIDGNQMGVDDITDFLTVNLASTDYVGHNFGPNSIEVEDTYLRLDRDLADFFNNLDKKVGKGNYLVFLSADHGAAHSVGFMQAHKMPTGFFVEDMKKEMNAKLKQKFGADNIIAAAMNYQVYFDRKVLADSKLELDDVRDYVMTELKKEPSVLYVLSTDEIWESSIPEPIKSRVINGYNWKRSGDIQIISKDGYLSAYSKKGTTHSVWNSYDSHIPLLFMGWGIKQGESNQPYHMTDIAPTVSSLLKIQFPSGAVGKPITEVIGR
KKAKARAFTISDS
binding score (human cyclin A2; peptide binding, competitive growth sequencing; peptide, Saccharomyces cerevisiae, cyclin A2-Cln2 fusion strain; concentration not given, mutational scanning library; baseline: unfused Cln2 strain, direction not given): 0.295

P1 P512V
oxyanion analog dissociation constant (vanadate, free oxyanion; microfluidic competitive inhibition; in vitro, cell-free expressed; not given, derived from inhibition constants, unchanged parent 676 nM; lower = stronger binding): 643 nM

Repeated from above (series 1):
CCUGGCCCCUGGCCCCUGGCCCCUUGCCUGGCUGGCUUGACAGCCUGAGCACAAGAAGCAGUAAGUUGGCACCUUGCCACACUGUUGGUUGGGCCCAGGUGCUGCUCAGC: 0.277
